Experimental data gathered from unrelated publications.
Protocols differ between the studies behind these lines. ± gives the spread as reported.
Cacna1b with α2δ, β3 subunits: Voltage-dependent N-type calcium channel subunit alpha-1B, with α2δ, β3 subunits (Cacna1b, Rattus norvegicus, UniProt Q02294)
bglR: Beta-glucuronidase (bglR, Clostridium perfringens, UniProt Q8XP19)

By UniProt entry, the sequences of proteins in these tests, tags left out. Where a name states a change or a piece, a line headed by the entry shows the natural chain unless it says otherwise.
UniProt Q02294, whole entry, looked up: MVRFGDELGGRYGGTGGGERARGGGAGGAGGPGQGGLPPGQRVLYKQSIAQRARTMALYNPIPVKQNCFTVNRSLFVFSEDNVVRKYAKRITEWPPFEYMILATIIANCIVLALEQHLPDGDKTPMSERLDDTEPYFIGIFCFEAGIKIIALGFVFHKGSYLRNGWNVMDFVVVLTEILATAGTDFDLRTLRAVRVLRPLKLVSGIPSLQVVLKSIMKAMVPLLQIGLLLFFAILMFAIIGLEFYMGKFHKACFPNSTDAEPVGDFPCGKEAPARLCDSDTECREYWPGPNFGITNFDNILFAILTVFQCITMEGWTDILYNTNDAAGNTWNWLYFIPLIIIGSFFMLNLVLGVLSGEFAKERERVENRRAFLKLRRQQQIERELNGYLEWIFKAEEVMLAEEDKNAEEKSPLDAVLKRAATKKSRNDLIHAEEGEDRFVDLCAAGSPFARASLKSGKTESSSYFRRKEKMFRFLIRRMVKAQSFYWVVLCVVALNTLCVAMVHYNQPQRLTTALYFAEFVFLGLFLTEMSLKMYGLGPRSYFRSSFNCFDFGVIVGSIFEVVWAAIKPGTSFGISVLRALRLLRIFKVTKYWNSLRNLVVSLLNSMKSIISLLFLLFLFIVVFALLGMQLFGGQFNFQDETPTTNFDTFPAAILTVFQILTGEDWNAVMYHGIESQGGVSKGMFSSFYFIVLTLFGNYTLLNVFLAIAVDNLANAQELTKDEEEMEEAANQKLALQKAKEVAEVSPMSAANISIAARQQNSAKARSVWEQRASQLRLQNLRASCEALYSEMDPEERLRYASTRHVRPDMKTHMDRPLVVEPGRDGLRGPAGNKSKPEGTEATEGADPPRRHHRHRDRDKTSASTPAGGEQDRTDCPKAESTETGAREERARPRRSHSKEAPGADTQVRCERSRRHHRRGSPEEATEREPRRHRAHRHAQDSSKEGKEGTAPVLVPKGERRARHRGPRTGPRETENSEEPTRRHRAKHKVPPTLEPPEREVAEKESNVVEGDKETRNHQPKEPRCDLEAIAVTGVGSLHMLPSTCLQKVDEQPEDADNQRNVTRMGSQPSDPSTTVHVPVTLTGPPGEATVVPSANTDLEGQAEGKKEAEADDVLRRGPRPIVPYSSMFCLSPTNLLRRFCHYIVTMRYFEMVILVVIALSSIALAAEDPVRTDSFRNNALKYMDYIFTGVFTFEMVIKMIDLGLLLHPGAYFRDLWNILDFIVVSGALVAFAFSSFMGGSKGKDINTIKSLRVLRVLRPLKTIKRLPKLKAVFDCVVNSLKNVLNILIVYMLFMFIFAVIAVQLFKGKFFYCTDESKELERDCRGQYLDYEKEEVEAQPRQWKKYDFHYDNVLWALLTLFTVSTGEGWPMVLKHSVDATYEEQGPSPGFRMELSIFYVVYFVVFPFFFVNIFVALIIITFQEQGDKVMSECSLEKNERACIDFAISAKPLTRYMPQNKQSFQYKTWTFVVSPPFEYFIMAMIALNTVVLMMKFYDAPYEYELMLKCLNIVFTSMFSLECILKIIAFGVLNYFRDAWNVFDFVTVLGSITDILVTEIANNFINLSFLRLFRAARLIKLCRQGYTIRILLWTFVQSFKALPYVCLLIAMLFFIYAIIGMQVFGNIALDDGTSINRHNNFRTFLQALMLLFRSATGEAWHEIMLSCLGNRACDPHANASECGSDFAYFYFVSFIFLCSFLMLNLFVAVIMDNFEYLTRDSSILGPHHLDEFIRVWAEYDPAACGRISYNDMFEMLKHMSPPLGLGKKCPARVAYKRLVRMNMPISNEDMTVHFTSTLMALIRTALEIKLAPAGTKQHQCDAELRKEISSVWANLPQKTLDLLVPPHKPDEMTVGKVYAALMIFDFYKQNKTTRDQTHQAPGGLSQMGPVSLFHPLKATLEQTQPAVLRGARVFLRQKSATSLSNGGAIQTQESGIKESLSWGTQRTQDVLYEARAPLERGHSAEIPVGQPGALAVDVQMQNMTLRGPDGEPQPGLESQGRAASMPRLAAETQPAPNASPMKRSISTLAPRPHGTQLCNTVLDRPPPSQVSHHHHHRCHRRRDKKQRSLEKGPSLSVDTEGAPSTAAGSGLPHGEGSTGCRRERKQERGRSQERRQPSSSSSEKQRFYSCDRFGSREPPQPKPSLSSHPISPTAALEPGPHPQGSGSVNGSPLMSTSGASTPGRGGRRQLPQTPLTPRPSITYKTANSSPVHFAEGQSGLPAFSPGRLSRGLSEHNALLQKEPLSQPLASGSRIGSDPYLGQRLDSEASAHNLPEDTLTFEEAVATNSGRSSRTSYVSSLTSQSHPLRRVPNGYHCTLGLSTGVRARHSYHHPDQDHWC
UniProt Q9WTU3, whole entry: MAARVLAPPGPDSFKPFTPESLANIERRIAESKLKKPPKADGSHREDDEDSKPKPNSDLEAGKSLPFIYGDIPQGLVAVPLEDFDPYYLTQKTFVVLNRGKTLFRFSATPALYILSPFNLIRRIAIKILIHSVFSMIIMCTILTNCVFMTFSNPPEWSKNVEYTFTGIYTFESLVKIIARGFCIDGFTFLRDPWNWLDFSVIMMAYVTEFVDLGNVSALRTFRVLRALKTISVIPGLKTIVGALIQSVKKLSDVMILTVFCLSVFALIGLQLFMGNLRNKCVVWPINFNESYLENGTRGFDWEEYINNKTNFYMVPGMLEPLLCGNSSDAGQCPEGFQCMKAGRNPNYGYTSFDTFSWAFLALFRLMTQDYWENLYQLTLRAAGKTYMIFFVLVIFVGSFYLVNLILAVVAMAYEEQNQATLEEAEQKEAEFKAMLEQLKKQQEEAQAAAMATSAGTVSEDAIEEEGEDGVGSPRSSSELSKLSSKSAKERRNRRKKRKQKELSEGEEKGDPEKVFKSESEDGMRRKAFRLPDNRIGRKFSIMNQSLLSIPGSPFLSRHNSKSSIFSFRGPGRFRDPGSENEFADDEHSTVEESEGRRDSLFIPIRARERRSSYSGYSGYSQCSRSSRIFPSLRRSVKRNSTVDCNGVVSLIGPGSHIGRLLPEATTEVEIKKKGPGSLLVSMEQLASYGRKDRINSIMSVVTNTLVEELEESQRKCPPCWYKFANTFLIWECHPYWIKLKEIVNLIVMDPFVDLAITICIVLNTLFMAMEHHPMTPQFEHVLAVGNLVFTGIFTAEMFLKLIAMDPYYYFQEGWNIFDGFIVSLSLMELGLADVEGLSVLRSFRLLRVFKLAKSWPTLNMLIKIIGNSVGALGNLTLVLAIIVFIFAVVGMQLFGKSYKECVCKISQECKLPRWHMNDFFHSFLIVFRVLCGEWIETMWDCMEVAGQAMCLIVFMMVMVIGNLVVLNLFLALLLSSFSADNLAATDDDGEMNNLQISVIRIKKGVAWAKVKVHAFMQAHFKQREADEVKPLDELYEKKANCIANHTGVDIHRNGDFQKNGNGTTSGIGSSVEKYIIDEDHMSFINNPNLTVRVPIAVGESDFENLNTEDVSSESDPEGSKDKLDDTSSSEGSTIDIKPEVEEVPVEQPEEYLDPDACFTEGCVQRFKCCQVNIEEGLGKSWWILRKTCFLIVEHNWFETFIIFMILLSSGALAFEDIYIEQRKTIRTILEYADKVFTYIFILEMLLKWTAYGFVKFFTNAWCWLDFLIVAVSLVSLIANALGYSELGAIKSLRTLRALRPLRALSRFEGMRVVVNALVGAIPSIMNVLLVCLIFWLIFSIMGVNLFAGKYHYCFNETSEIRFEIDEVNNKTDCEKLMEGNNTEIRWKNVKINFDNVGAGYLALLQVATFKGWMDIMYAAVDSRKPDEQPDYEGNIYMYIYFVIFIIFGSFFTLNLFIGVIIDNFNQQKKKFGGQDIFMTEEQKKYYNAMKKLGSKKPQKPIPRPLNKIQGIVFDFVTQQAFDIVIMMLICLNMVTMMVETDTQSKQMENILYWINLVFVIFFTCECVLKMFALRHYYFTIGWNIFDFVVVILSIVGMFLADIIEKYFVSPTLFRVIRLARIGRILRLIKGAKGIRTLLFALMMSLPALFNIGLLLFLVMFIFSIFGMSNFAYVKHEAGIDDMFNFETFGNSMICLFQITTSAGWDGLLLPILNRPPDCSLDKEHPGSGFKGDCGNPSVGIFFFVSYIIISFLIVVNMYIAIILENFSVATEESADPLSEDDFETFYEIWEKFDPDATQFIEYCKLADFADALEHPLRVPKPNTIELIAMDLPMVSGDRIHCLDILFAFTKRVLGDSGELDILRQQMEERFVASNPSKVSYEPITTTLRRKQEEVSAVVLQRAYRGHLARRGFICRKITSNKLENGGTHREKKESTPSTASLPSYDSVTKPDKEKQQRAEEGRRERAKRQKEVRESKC
UniProt O42275, whole entry, looked up: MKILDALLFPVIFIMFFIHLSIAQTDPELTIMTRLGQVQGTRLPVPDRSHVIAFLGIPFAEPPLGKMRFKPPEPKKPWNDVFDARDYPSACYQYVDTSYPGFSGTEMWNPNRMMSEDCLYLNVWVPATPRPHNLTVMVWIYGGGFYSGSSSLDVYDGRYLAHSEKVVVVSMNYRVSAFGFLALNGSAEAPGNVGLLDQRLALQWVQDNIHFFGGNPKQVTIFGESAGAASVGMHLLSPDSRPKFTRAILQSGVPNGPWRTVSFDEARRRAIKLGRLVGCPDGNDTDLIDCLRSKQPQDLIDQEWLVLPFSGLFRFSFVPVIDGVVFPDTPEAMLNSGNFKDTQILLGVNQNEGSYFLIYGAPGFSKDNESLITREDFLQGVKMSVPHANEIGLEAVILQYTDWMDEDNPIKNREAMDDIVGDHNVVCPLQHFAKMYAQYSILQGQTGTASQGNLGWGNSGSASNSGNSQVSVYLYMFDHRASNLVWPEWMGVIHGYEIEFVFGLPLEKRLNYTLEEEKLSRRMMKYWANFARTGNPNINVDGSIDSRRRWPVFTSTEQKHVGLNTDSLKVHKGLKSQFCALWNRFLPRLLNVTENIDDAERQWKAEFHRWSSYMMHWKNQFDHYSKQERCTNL

`O=C(O)COCCN1CCN(C(c2ccccc2)c2ccc(Cl)cc2)CC1` (centres unmarked): IC50 “no inhibition” (Replicase polyprotein 1ab, nsp14 (rep, Severe acute respiratory syndrome-related coronavirus, UniProt P0C6X7); enzyme activity, inhibitor).
`Cc1ccc(Cn2cnc3ccccc32)cc1` gave an IC50 of 90000 nM (Enoyl-[acyl-carrier-protein] reductase [NADH] (Francisella tularensis subsp. tularensis, UniProt Q5NGQ3)).
With `CC(=O)N[C@@H](CCCCN)C(=O)N[C@@H](Cc1c[nH]c2ccccc12)C(=O)N[C@H]1CCCCNC(=O)C[C@@H](C(=O)N[C@@H](CCCNC(=N)N)C(N)=O)NC(=O)[C@H](Cc2c[nH]cn2)NC(=O)[C@H](CC(=O)O)NC(=O)[C@H](CCCNC(=N)N)NC1=O` the IC50 was 54300 ± 9000 nM (Scn8a (Mus musculus, UniProt Q9WTU3); ion current, inhibitor, Hill equation fit; mouse channel).
For `O=C(Nc1scc(-c2cccs2)c1C(=O)O)c1ccc(Br)cc1`, the IC50 was 156000 nM (Replicase polyprotein 1ab, papain-like protease (rep, Severe acute respiratory syndrome-related coronavirus, UniProt P0C6X7); PLpro protease activity, inhibitor; added: Z-RLRGG-AMC 40 µM).
`C[C@@H]1NC(=O)[C@H](CO)NC(=O)CNC(=O)[C@H](CCCCN)NC(=O)[C@H](CCCNC(=N)N)NC(=O)[C@H](CCCCN)NC(=O)[C@@H](N)CSSC[C@@H]2NC(=O)[C@@H]3CSSC[C@@H](C(N)=O)NC(=O)[C@H](CCCCN)NC(=O)CNC(=O)[C@H](CC(N)=O)NC(=O)[C@H](CCCNC(=N)N)NC(=O)[C@H](CSSC[C@H](NC1=O)C(=O)N[C@@H](CCCNC(=N)N)C(=O)N[C@@H](CCCNC(=N)N)C(=O)N[C@@H]([C@@H](C)O)C(=O)N[C@@H](CO)C(=O)N[C@@H](Cc1ccc(O)cc1)C(=O)N[C@@H](CC(=O)O)C(=O)N3)NC(=O)[C@H](CO)NC(=O)CNC(=O)[C@H]([C@@H](C)O)NC2=O` has an IC50 of 98 nM (Cacna1b with α2δ, β3 subunits; Ba2+ current, inhibitor, whole-cell patch clamp; HEK293 expressing α2δ and β3; 22 °C, added: Ba2+ 20 mM).
For `NC(=O)COc1c(SSc2cnn(-c3ccccc3)c(=O)c2OCC(N)=O)cnn(-c2ccccc2)c1=O`, the IC50 was 94000 ± 23000 nM (Sortase A (Bacillus anthracis str. H9401, UniProt P0DPQ5); inhibitor; Bacillus anthracis).
For `CS(=O)(=O)/C=C/CNC(=O)c1cc(-c2ccccc2)n[nH]1`, the IC50 was 120 ± 5 nM (Polyprotein P1234, nsP2 protease (Chikungunya virus, UniProt Q5XXP4); FRET).
`O=C(Nc1ccc(F)cc1)C1C(=O)N(O)C(=O)c2cc([N+](=O)[O-])ccc21` (centres unmarked) gave an IC50 of 13300 ± 1000 nM (Nucleoprotein, exonuclease domain (N, Lymphocytic choriomeningitis virus, UniProt P09992); exonuclease activity, inhibitor).
`CC[C@H](C)[C@H](NC(=O)[C@H](C)NC(=O)[C@H](CCC(=O)O)NC(=O)[C@H](CCC(=O)O)NC(=O)[C@H](CC(C)C)NC(=O)[C@H](CCCCN)NC(=O)[C@H](CCCCN)NC(=O)[C@H](CCSC)NC(=O)[C@H](CCC(=O)O)NC(=O)[C@H](Cc1ccc(O)cc1)NC(=O)[C@H](CCC(=O)O)NC(=O)[C@H](CC(C)C)NC(=O)[C@H](CC(=O)O)NC(=O)[C@H](CC(C)C)NC(=O)[C@H](Cc1ccccc1)NC(=O)[C@H](Cc1ccccc1)NC(=O)[C@@H](NC(=O)[C@H](CC(N)=O)NC(=O)[C@@H](NC(=O)[C@H](CCC(N)=O)NC(=O)[C@H](CC(=O)O)NC(=O)[C@H](CC(C)C)NC(=O)[C@@H](N)CO)[C@@H](C)CC)C(C)C)C(=O)N[C@@H](CCCCN)C(=O)N[C@@H](CCCCN)C(=O)N[C@@H](CC(C)C)C(=O)N[C@@H](CCC(=O)O)C(=O)N[C@@H](CCC(=O)O)C(=O)N[C@H](C(=O)N[C@@H](Cc1ccc(O)cc1)C(=O)N[C@H](C(=O)N[C@@H](CC(=O)O)C(=O)N[C@@H](CC(C)C)C(=O)N[C@@H](CCCCN)C(=O)N[C@@H](CCC(=O)O)C(=O)N[C@@H](CC(C)C)C(=O)O)[C@@H](C)CC)[C@@H](C)O` gave an IC50 of 3540 nM (Spike glycoprotein (MERS-CoV, UniProt K9N5Q8); cell-cell fusion, inhibitor, luciferase fusion; 293T donor, Huh-7 target; 16 h, 37 °C, dual mutations).
The IC50 of `C[C@@H](O)[C@@H]1NC(=O)[C@@H]2CSSC[C@H](N)C(=O)N[C@@H](CCCCN)C(=O)N[C@@H](CCCNC(=N)N)C(=O)N[C@@H](CCCCN)C(=O)NCC(=O)N[C@@H](CO)C(=O)N[C@@H](CO)C(=O)N[C@H]3CSSC[C@H](NC(=O)[C@H](CO)NC(=O)CNC1=O)C(=O)N[C@@H](CCCNC(=N)N)C(=O)N[C@@H](CO)C(=O)NCC(=O)N[C@@H](CCCCN)C(=O)N[C@H](C(N)=O)CSSC[C@H](NC(=O)[C@H](CC(=O)O)NC(=O)[C@H](Cc1ccc(O)cc1)NC(=O)[C@H](CO)NC(=O)[C@H]([C@@H](C)O)NC(=O)[C@H](CCCNC(=N)N)NC(=O)[C@H](CCCNC(=N)N)NC3=O)C(=O)N2` is reported as 95 nM (Cacna1b with α2δ, β3 subunits; Ba2+ current, inhibitor, whole-cell patch clamp; HEK293 expressing α2δ and β3; 22 °C, added: Ba2+ 20 mM).
With `CC[C@H](C)[C@@H]1NC(=O)[C@@H]2CSSC[C@H](NC(=O)[C@H](CCCNC(=N)N)NC(=O)[C@@H]3CSSC[C@H](NC1=O)C(=O)N[C@@H]([C@@H](C)O)C(=O)N[C@@H](CCCNC(=N)N)C(=O)NCC(=O)N[C@@H](Cc1ccccc1)C(=O)N3)C(=O)N[C@@H](CC(C)C)C(=O)N[C@H]1CSSC[C@H](NC(=O)[C@H](C(C)C)NC(=O)CNC(=O)[C@H](CCCNC(=N)N)NC(=O)[C@H](CC(C)C)NC1=O)C(=O)N[C@@H](CCCNC(=N)N)C(=O)N2` the IC50 was 505 ± 59 nM (Lethal factor (Bacillus anthracis, UniProt P15917); protease activity; crude desalted peptide, no BSA).
`CC[C@H](C)[C@H](NC(=O)[C@H](C)NC(=O)[C@H](CCC(=O)O)NC(=O)[C@H](CCC(=O)O)NC(=O)[C@H](CC(C)C)NC(=O)[C@H](CCCCN)NC(=O)[C@H](CCCCN)NC(=O)[C@H](CCSC)NC(=O)[C@H](CCC(=O)O)NC(=O)[C@H](Cc1ccc(O)cc1)NC(=O)[C@H](CCC(=O)O)NC(=O)[C@H](CC(C)C)NC(=O)[C@H](CC(=O)O)NC(=O)[C@H](CC(C)C)NC(=O)[C@H](Cc1ccccc1)NC(=O)[C@@H](NC(=O)[C@@H](NC(=O)[C@H](CC(N)=O)NC(=O)[C@@H](NC(=O)[C@H](CCC(N)=O)NC(=O)[C@H](CC(=O)O)NC(=O)[C@H](CC(C)C)NC(=O)[C@@H](N)CO)[C@@H](C)CC)C(C)C)[C@@H](C)O)C(=O)N[C@@H](CCCCN)C(=O)N[C@@H](CCCCN)C(=O)N[C@@H](CC(C)C)C(=O)N[C@@H](CCC(=O)O)C(=O)N[C@@H](CCC(=O)O)C(=O)N[C@@H](CO)C(=O)N[C@@H](Cc1ccc(O)cc1)C(=O)N[C@H](C(=O)N[C@@H](CC(=O)O)C(=O)N[C@@H](CC(C)C)C(=O)N[C@@H](CCCCN)C(=O)N[C@@H](CCC(=O)O)C(=O)N[C@@H](CC(C)C)C(=O)O)[C@@H](C)CC` has an IC50 of 17.5 nM (Spike glycoprotein (Severe acute respiratory syndrome coronavirus, UniProt P59594); cell-cell fusion, inhibitor, luciferase fusion; 293T donor, Huh-7 target; 16 h, 37 °C, dual mutations).
For `CN(C)Cc1ccc(OC(=O)N(C)C)c(Cl)c1`, the IC50 was 14000 ± 1000 nM (ache (Electrophorus electricus, UniProt O42275); enzyme activity, inhibitor, Ellman; 10 min preincubation, pH 8, 23 °C).
For `CC[C@H](C)[C@H](NC(=O)[C@H](C)NC(=O)[C@H](CCC(=O)O)NC(=O)[C@H](CCC(=O)O)NC(=O)[C@H](CC(C)C)NC(=O)[C@H](CCCCN)NC(=O)[C@H](CCCCN)NC(=O)[C@H](CCSC)NC(=O)[C@H](CCC(=O)O)NC(=O)[C@H](Cc1ccc(O)cc1)NC(=O)[C@H](CCC(=O)O)NC(=O)[C@H](CC(C)C)NC(=O)[C@H](CC(=O)O)NC(=O)[C@H](CC(C)C)NC(=O)[C@H](Cc1ccccc1)NC(=O)[C@@H](NC(=O)[C@@H](NC(=O)[C@H](CC(N)=O)NC(=O)[C@@H](NC(=O)[C@H](CCC(N)=O)NC(=O)[C@H](CC(=O)O)NC(=O)[C@H](CC(C)C)NC(=O)[C@@H](N)CO)[C@@H](C)CC)C(C)C)[C@@H](C)O)C(=O)N[C@@H](CCCCN)C(=O)N[C@@H](CCCCN)C(=O)N[C@@H](CC(C)C)C(=O)N[C@@H](CCC(=O)O)C(=O)N[C@@H](CCC(=O)O)C(=O)N[C@@H](C)C(=O)N[C@@H](Cc1ccc(O)cc1)C(=O)N[C@H](C(=O)N[C@@H](CC(=O)O)C(=O)N[C@@H](CC(C)C)C(=O)N[C@@H](CCCCN)C(=O)N[C@@H](CCC(=O)O)C(=O)N[C@@H](CC(C)C)C(=O)O)[C@@H](C)CC`, the IC50 was 152 nM (Spike glycoprotein (Severe acute respiratory syndrome coronavirus, UniProt P59594); cell-cell fusion, inhibitor, luciferase fusion; 293T donor, Huh-7 target; 16 h, 37 °C).
For `c1ccc(-c2ccc3c(n2)sc2c(N4CCNCC4)ncnc23)cc1`, the IC50 was 15 ± 8 nM (bglR; enzyme activity, inhibitor).
The IC50 of `CC[C@H](C)[C@H](NC(=O)[C@H](C)NC(=O)[C@H](CCC(=O)O)NC(=O)[C@H](CCC(=O)O)NC(=O)[C@H](CC(C)C)NC(=O)[C@H](CCCCN)NC(=O)[C@H](CCCCN)NC(=O)[C@H](CCSC)NC(=O)[C@H](CCC(=O)O)NC(=O)[C@H](Cc1ccc(O)cc1)NC(=O)[C@H](CCC(=O)O)NC(=O)[C@H](CC(C)C)NC(=O)[C@H](CC(=O)O)NC(=O)[C@H](CC(C)C)NC(=O)[C@H](Cc1ccccc1)NC(=O)[C@@H](NC(=O)[C@@H](NC(=O)[C@H](CC(N)=O)NC(=O)[C@@H](NC(=O)[C@H](CCC(N)=O)NC(=O)[C@H](CC(=O)O)NC(=O)[C@H](CC(C)C)NC(=O)[C@H](CO)NC(=O)[C@H](CC(C)C)NC(=O)[C@H](CC(=O)O)NC(=O)[C@@H]1CCCN1C(=O)[C@H](C)N)[C@@H](C)CC)C(C)C)[C@@H](C)O)C(=O)N[C@@H](CCCCN)C(=O)N[C@@H](CCCCN)C(=O)N[C@@H](CC(C)C)C(=O)N[C@@H](CCC(=O)O)C(=O)N[C@@H](CCC(=O)O)C(=O)N[C@@H](CO)C(=O)N[C@@H](Cc1ccc(O)cc1)C(=O)N[C@H](C(=O)N[C@@H](CC(=O)O)C(=O)N[C@@H](CC(C)C)C(=O)N[C@@H](CCCCN)C(=O)N[C@@H](CCC(=O)O)C(=O)N[C@@H](CC(C)C)C(=O)O)[C@@H](C)CC` is reported as 1460 nM (Spike glycoprotein (MERS-CoV, UniProt K9N5Q8); cell-cell fusion, inhibitor, luciferase fusion; 293T donor, Huh-7 target; 16 h, 37 °C).
`CNc1nc(N2CCNCC2)c2sc3ncccc3c2n1` has an IC50 of 60 ± 1 nM (bglR; enzyme activity, inhibitor).

Repeated from above:
`Cc1ccc(Cn2cnc3ccccc32)cc1` gave an IC50 of 90000 nM (Enoyl-[acyl-carrier-protein] reductase [NADH] (Francisella tularensis subsp. tularensis, UniProt Q5NGQ3)).
The IC50 of `CC[C@H](C)[C@H](NC(=O)[C@H](C)NC(=O)[C@H](CCC(=O)O)NC(=O)[C@H](CCC(=O)O)NC(=O)[C@H](CC(C)C)NC(=O)[C@H](CCCCN)NC(=O)[C@H](CCCCN)NC(=O)[C@H](CCSC)NC(=O)[C@H](CCC(=O)O)NC(=O)[C@H](Cc1ccc(O)cc1)NC(=O)[C@H](CCC(=O)O)NC(=O)[C@H](CC(C)C)NC(=O)[C@H](CC(=O)O)NC(=O)[C@H](CC(C)C)NC(=O)[C@H](Cc1ccccc1)NC(=O)[C@@H](NC(=O)[C@@H](NC(=O)[C@H](CC(N)=O)NC(=O)[C@@H](NC(=O)[C@H](CCC(N)=O)NC(=O)[C@H](CC(=O)O)NC(=O)[C@H](CC(C)C)NC(=O)[C@H](CO)NC(=O)[C@H](CC(C)C)NC(=O)[C@H](CC(=O)O)NC(=O)[C@@H]1CCCN1C(=O)[C@H](C)N)[C@@H](C)CC)C(C)C)[C@@H](C)O)C(=O)N[C@@H](CCCCN)C(=O)N[C@@H](CCCCN)C(=O)N[C@@H](CC(C)C)C(=O)N[C@@H](CCC(=O)O)C(=O)N[C@@H](CCC(=O)O)C(=O)N[C@@H](CO)C(=O)N[C@@H](Cc1ccc(O)cc1)C(=O)N[C@H](C(=O)N[C@@H](CC(=O)O)C(=O)N[C@@H](CC(C)C)C(=O)N[C@@H](CCCCN)C(=O)N[C@@H](CCC(=O)O)C(=O)N[C@@H](CC(C)C)C(=O)O)[C@@H](C)CC` is reported as 1460 nM (Spike glycoprotein (MERS-CoV, UniProt K9N5Q8); cell-cell fusion, inhibitor, luciferase fusion; 293T donor, Huh-7 target; 16 h, 37 °C).
